Results from different studies.
± gives the spread as reported.
Target: Kappa-type opioid receptor (OPRK1, Homo sapiens, UniProt P41145)

SMILES	assay	system	conditions	endpoint	value
CC[C@H](C)[C@H](NC(=O)[C@@H](N)Cc1ccc(O)cc1)C(=O)N[C@@H](Cc1ccccc1)C(=O)N[C@@H](CC(N)=O)C(=O)N[C@@H](CC(C)C)C(=O)O	[3H]EKC binding displacement, whole-cell radioligand binding	MCF7	together with: DADLE	IC50	0.000159 ± 1.4e-15 µM
CC(C)[C@H]1CC[C@@H](N2CC[C@@](C)(c3cccc(O)c3)[C@@H](C)C2)CC1	GTPγS binding, agonist, radiometric			EC50	> 10 µM
Cc1cc(O)cc(C)c1CC(N)C(=O)NC1CCNc2ccc(CN3CCC4CCCCC4C3)cc21 (stereo not drawn)	GTPγS binding, agonist, radiometric		cell membranes	EC50	0.6 µM
Cc1cc(O)cc(C)c1CC(N)C(=O)NC1CCNc2c1cc(Cc1ccccc1)cc2C(F)(F)F (stereo not drawn)	GTPγS binding, agonist, radiometric		cell membranes	EC50	0.58 µM
Cc1cc(O)cc(C)c1C[C@H](N)C(=O)N[C@@H](C(=O)NCC(=O)N[C@@H](Cc1ccc2ccccc2c1)C(=O)N[C@@H](CC(C)C)C(=O)N[C@@H](CO)C(N)=O)[C@H](C)O	GTPγS binding, antagonist, radiometric		cell membranes	Kb	0.063 µM
Cc1cc(O)cc(C)c1CC(N)C(=O)NC1CCNc2c(Cc3ccccc3)cc(Cc3ccccc3)cc21 (stereo not drawn)	ligand displacement, radioligand		cell membranes	Ki	0.023 µM
CC(C)C[C@H](NC(=O)[C@H](Cc1cccc2ccccc12)NC(=O)CNC(=O)[C@H](NC(=O)[C@@H](N)Cc1ccc(O)cc1)[C@H](C)O)C(=O)N[C@@H](CO)C(N)=O	GTPγS binding, agonist, radiometric		cell membranes	EC50	> 1 µM
CCc1cc(Cc2ccccc2)cc2c1NCCC2NC(=O)C(N)Cc1c(C)cc(O)cc1C (stereo not drawn)	ligand displacement, radioligand		cell membranes	Ki	0.04 µM
CC(=O)N1CCC(NC(=O)C(N)Cc2c(C)cc(O)cc2C)c2cc(CN3CCC4CCCCC4C3)ccc21 (stereo not drawn)	GTPγS binding, agonist, radiometric		cell membranes	EC50	> 2 µM
